Assay results gathered from unrelated publications.
Numbered parts are unrelated; each lists some results of a single study. Positions count from the first letter of the parent shown.

Block 1
Target: RNA binding protein fox-1 homolog 2, RRM domain, GST-SBP tag (RBFOX2, Homo sapiens, UniProt O43251-10, residues 100-194)
Method: RNA Bind-n-Seq
Molecule type: RNA
Matrix: in vitro
Tested at: 365 nM
Notes: natural RNA segment, single round, ends assumed
Relative to: no-protein control
Reading: higher = stronger binding
Constant ends, left off below: GGGAGUUCUACAGUCCGACGAUC … UGGAAUUCUCGGGUGCCAA
Residues (chain): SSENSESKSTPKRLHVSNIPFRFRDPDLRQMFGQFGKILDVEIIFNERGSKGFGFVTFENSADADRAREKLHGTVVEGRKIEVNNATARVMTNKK
| Strand | RBNS enrichment (R) |
| --- | --- |
| UUACAAAGGCUGUAUUCAGCAAGGCGCUAACUUGCUUAAAUGUGAAUUACUAACUUCUAAAACUGUACUUUGAUUCACAUGUUUUCAAAUGGAGUUGGAGUUCAUUCAUA | 0.236 |
| UUACUGCUGCUUUAGAGCAUGAGUGCCUAGGUGCCUGGAUGCAUGUGUGCCCGGAUGCAUGGAUGCCUGGGUUCCUAGAUGCAUAGAUGCCUGGGUGCCUGGAUGCAUGG | 28.4 |
| CAUUCGAAGAGAUCAGGCGCGGUGGCUCACGCCUGUAAUCCCAGCAUUUUGGGAGGCUGAGGCAGGUGGAUCACUUGAGAUCAAGAGCUUAAAACCAGCCCAGGCAACAU | 0.735 |
| UGUCUGUUCACAGCAGUAAAAACUUAACUAAGACACAUACUGCUCUGAAAAUAAAAUAACUUUCUAUAAAUGCUUGCUCUCUGGUUCAUUCUAUUUAGAUCUAUCUAUAU | 0.678 |
| AUACGCAAGCUGCACAACCUGUAUAUUGUAUGCAUUGCUGCGUGGAGGCUGUUUAUUUCAACCUUUUUAAAAAUUGUGUUUUUUAGUAAAAUGGCUUAUUUUUUCCCAAA | 1.13 |
| GUCGUGGAGCCACUUCUCGCACUGCCACGGAGCAGCCGGAAACAAGGAGGCCUCGUGGGAUCCUUUAGUGCCAAGCCUGGCGUCCCUGGCCUCAAUUCCGACCUGAGCCC | 0.346 |
| UAGUCCCCUGUUCCAAAGCCAUCUCAUAUGUUAGUUCUCUGUCCCAUGAAGAGGGCCGUGGUGAGUUCCCGAGAAUUGUCUCUCUUUCAGCAGAGAGGUGAGGGACUCAG | 0.544 |
| UGGGCAUUUGAGAGGUACAGGCAGAAGAGAAGACAAUCAUGGUCUGAUUAGUUGAGUGACAGGAGUUAACAGUGAUAGUGGUUUGAGCUUUGUGUCUGUGACUCUUGUCU | 1.05 |
| AAUAACUUACAAGUGAAAUUAAGAAAACAUAAGAUUUAGUCUUACAGUUUCUAAAUAUAUGAUUUGUUGUUGAGAGAAAACAGUGAUUGUUAAUUAUGGCUUUUACUUCA | 0.418 |
| GGUCUCGGCACGGAGCUCUCGAGGCUGUGCAGACCUGCUCGUGGAGGGCUUAGGCUGUCUUAGGUGCACACUUGCACGGUCUCCAUGGCCUCCGUGAGCAUCUUUGUAGC | 0.371 |
| AAGUGGACCUAAGUGGCCGAGAGAGGAGGGUCUGGCCUCCUUGGCCCCCCAUCUUGCUUUCCCAGGGGCUGGCUUAUUGACAUUCCUCACAUGUUCUGAGUAUGGAACCU | 0.404 |
| CUCAGCACGUUCCUCCCUGGAGAGCGGGCGCCACGGCUGGUAUUCUGCAGGCUGAAUGCAGUCUCCAGACUGGAAACGCAGAGCGGCUCCUCACGCCUAAUCCUGUUGAC | 0.764 |

Block 2
Target: ABI1, truncated, D143A, DHFR fusion (Arabidopsis thaliana)
Method: DHFR PCA, deep sequencing
Matrix: yeast
Notes: methotrexate growth selection, single substitutions
Added: (+)-ABA 4.8 µM
Relative to: wild-type fitted maximum
Reading: higher = stronger binding
Parent: PYL1, truncated, DHFR fusion (Arabidopsis thaliana); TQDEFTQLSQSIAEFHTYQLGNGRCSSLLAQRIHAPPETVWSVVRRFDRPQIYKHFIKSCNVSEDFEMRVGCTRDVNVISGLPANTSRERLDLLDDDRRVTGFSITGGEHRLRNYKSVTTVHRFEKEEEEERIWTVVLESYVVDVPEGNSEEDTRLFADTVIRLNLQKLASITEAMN; partner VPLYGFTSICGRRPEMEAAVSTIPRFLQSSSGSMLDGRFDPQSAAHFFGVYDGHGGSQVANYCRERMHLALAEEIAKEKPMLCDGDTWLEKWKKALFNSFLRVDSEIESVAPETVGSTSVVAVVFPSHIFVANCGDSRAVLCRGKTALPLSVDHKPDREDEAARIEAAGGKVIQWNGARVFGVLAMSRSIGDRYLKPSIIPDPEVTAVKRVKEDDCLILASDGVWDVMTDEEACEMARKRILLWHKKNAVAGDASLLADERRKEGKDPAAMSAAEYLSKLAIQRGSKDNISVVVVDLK
| Substitution | relative binding score |
| --- | --- |
| L138E | -1.88% |
| V118W | -4.19% |
| R98G | 14.2% |
| Q51K | -10.8% |
| L93Q | 49.5% |
| E38P | -2.56% |
| S9I | 47.4% |
| V121C | 28.4% |
| A158Q | 1.44% |
| E174Y | 14.2% |
| M176G | 67.8% |
| S140V | -3.83% |
| V62S | 9.39% |
| L138G | 2.68% |

Block 3
Target: CCNF, cyclin fold, Cln2 fusion (human)
Method: yeast growth competition, sequencing
Matrix: yeast
Notes: strong parent motif
Relative to: not given
Reading: higher = stronger binding
Parent: SLBP docking peptide (human); ARYKRKLLINDFG
| Substitution | normalised enrichment score |
| --- | --- |
| I9T | 1.47 |
| N10I | 2.54 |
| D11W | 2.5 |
| K4L | 2.43 |
| Y3F | 1.52 |
| L8A | 1.55 |
| R5D | 0.6 |
| G13V | 3.29 |
| L7V | 1.35 |
| K6A | 1.47 |
| D11C | 2.96 |
| L7Y | 2.02 |
| L8Q | 1.32 |
| N10L | 3.65 |
| N10V | 1.64 |
| F12K | 6.06 |
| G13S | 1.29 |
| L8M | 2.18 |
| Y3V | 5.65 |
| F12I | 1.59 |
| A1M | 2.27 |
| L8K | 1.15 |
| Y3Q | 1.63 |
| Y3M | 1.57 |
| L8N | 1.45 |

Block 4
Target: CEBPE, bZIP domain (human)
Method: DHFR protein complementation
Matrix: yeast
Notes: single substitutions, most at no-binding floor
Relative to: wild-type JUN-FOS pair
Reading: higher = stronger binding
Parent: JUN, bZIP domain (human); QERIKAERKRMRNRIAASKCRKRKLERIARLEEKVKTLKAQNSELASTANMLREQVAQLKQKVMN; partner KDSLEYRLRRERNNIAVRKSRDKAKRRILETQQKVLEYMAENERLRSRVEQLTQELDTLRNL
| Substitution | binding fitness [natural log] |
| --- | --- |
| E54V | -1.33 |
| T48E | -1.28 |
| E32K | -1.34 |
| N42A | -1.43 |
| L52P | -1.55 |
| A40Y | -1.3 |
| L45H | -1.61 |
| N42P | -1.5 |
| T48P | -1.5 |
| A40V | -1.22 |
| K36D | -1.18 |
| E54D | -1.17 |
| L31F | -1.49 |
| E44C | -1.34 |
| Q41N | -1.31 |
| A57W | -1.31 |

Block 5
Substance: PhoQ, residues 284 288 289 292 302 303 SASVAL
Method: Sort-seq
Measured: YFP reporter
Matrix: E. coli
Notes: PhoQ-PhoP variant library
Added: 10 µM Mg2+
Relative to: high Mg2+ state
Reading: higher = stronger signaling
| target | fold induction |
| --- | --- |
| PhoP, residues 12 14 15 18 19 HHYTI (Escherichia coli, UniProt P23836) | 1.05 |
| PhoP, residues 12 14 15 18 19 AYFRS (Escherichia coli, UniProt P23836) | 20.6 |
| PhoP, residues 12 14 15 18 19 SFCSL (Escherichia coli, UniProt P23836) | 15.6 |

Block 6
Target: Sal-like protein 4, full length isoform A (SALL4, Homo sapiens, UniProt Q9UJQ4, residues 1-1053)
Chain of UniProt Q9UJQ4 (whole entry, looked up): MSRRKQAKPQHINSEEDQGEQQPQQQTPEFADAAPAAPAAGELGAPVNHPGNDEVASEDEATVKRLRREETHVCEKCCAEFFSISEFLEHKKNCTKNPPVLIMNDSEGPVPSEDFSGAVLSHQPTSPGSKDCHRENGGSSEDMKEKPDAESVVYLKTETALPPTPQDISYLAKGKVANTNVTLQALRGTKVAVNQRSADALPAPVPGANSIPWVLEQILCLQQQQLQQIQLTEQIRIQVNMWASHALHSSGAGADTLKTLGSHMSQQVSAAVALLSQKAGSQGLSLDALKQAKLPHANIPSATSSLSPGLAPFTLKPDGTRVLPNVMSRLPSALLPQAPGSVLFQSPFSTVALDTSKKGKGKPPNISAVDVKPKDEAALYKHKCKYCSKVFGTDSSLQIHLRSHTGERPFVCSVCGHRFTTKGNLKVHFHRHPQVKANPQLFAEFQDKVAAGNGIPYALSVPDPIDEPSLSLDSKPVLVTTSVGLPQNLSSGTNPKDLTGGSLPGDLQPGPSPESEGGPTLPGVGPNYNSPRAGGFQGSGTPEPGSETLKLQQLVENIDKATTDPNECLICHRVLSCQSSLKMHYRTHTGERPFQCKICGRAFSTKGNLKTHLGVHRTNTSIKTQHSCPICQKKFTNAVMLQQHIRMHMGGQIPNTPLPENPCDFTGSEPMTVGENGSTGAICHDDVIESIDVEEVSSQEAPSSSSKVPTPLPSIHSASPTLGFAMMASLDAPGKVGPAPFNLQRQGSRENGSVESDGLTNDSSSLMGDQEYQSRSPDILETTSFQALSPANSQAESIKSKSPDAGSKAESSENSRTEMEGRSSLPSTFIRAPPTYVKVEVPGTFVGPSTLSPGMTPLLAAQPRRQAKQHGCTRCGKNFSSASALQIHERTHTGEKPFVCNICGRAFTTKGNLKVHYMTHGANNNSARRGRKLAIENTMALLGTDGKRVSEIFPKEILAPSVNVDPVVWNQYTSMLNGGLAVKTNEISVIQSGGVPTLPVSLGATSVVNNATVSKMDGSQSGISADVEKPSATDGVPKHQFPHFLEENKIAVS
Method: universal PBM
Molecule type: double-stranded DNA, one strand shown
Matrix: in vitro
Tested at: 600 nM
Notes: 8-mer, flanks averaged, mean of replicates
Reading: higher = stronger binding
| Strand | E-score |
| --- | --- |
| ACTCGCTC | -0.145 |
| AAATTGCG | 0.237 |
| ACAAACCA | -0.0599 |
| CCAATCGG | -0.188 |
| ATAAGCGG | 0.138 |
| CGCCGTAG | -0.224 |
| ACAATGAC | -0.0663 |
| TCTGGTCA | -0.13 |
| ATCGAGGC | -0.0594 |
| TGCCGGAA | -0.0461 |
| AACACGTG | 0.0532 |
| TCAAGCCA | 0.00076 |
| ATCCACGC | -0.144 |
| ATGTCTTC | 0.127 |
| CGGGCAAA | -0.172 |
| CATAAAAA | 0.358 |
| ATCGACAC | -0.00485 |
| CCAAGCGG | -0.394 |
| GTGAACCA | 0.0427 |
| TCTCCAGA | -0.116 |
| CGTGAACG | -0.288 |
| ACGGCAAC | -0.181 |
| AGACATAC | 0.196 |

Some of these lines once more (block 6):
| Strand | E-score |
| --- | --- |
| ACAATGAC | -0.0663 |
| TCTGGTCA | -0.13 |
| ATCGAGGC | -0.0594 |
| TGCCGGAA | -0.0461 |
| AACACGTG | 0.0532 |
| TCAAGCCA | 0.00076 |
